Results gathered from unrelated publications.
Compare with care: the assays were run in different laboratories. Numbers after ± are the reported error.

Cc1ccc(NC(=O)c2ccc(CN3CCN(C)CC3)cc2)cc1Nc1nccc(-c2cncc(-c3oncc3C)c2)n1
Cmax (Parkinson's disease patients, plasma; oral, 100 mg once daily, day 1, 7-day dosing, mean): 4160 ng/mL

CN1CC[C@H](c2c(O)cc(O)c3c(=O)cc(-c4ccccc4Cl)oc23)[C@H](O)C1
Cmax (patients with advanced solid tumours, plasma; intravenous infusion, 40 mg/m^2, lower dose level, with: FOLFOX): 1230 nM

CC[C@H](C)CCCCC(=O)N[C@@H](CCN)C(=O)N[C@H](C(=O)N[C@@H](CCN)C(=O)N[C@H]1CCNC(=O)[C@H]([C@@H](C)O)NC(=O)[C@H](CCN)NC(=O)[C@H](CCN)NC(=O)[C@H](CC(C)C)NC(=O)[C@@H](Cc2ccccc2)NC(=O)[C@H](CCN)NC1=O)[C@@H](C)O
Cmax (UPLC-MS/MS; intensive care patients Non-AKI, plasma; iv, dose not given, end of infusion, steady state, polymyxin B dosing): 5600 ± 1800 ng/mL

NC(=O)c1cnc2[nH]ccc2c1N[C@@H]1[C@@H]2CC3C[C@H]1C[C@@](O)(C3)C2
Cmax (healthy Japanese men, plasma; oral, 60 mg, single dose fasted): 241 ng/mL

Cc1nc(-c2ccc(OCC(C)C)c(C#N)c2)sc1C(=O)O
Cmax (healthy Chinese adults, plasma; oral, 80 mg single dose, fasting): 4330 ± 1250 ng/mL

Cn1c(-c2ccc(C(N)=O)cc2F)nnc1C(C)(C)Oc1c(F)cc(Cl)cc1F
Cmax (elderly non-Japanese subjects, plasma; oral, 20 mg single dose, day 1, mean): 252 ng/mL

CC(C)=CCC[C@](C)(O[C@@H]1O[C@H](CO)[C@@H](O)[C@H](O)[C@H]1O)[C@H]1CC[C@]2(C)[C@@H]1[C@H](O)C[C@@H]1[C@@]3(C)CC[C@H](O[C@@H]4O[C@H](CO)[C@@H](O)[C@H](O)[C@H]4O)C(C)(C)[C@@H]3CC[C@]12C
Cmax (LC-MS/MS; healthy volunteers, serum; oral, 3 g red ginseng): 0.68 ± 0.32 ng/mL

CO/N=C1\C[C@]2(C[C@@H]3C[C@@H](C/C=C(\C)C[C@@H](C)/C=C/C=C4\CO[C@@H]5[C@H](O)C(C)=C[C@@H](C(=O)O3)[C@]45O)O2)O[C@H](/C(C)=C/C(C)C)[C@H]1C
Cmax (parasitized Corriedale lambs, plasma; subcutaneous, 0.2 mg/kg): 26.2 ± 6.82 ng/mL

Cc1nc(-c2ccc(OCC(C)C)c(C#N)c2)sc1C(=O)O
Cmax (healthy men, plasma; oral, 80 mg once daily, day 14, arithmetic mean, with: verinurad 2.5 mg): 1750 ng/mL

O=C(CCCCCCC(=O)Nc1ccccc1)NO
Cmax (patients, serum; oral, 600 mg, cycle 1 day 2, with: flavopiridol 30+30 mg/m2): 4870 nM

COc1cc2c3c(n(CCCN4CCOCC4)c(=O)c2cc1OC)-c1cc2c(cc1C3=O)OCO2
Cmax (patients, plasma; intravenous infusion, 10 mg/m^2 daily over 1 h, cycle 1 day 3): 347 ng/mL

CC(=O)Nc1ccc(O[C@@H]2O[C@H](C(=O)O)[C@@H](O)[C@H](O)[C@H]2O)cc1
Cmax (healthy volunteers, both sexes, plasma; oral, 650 mg acetaminophen, day 1): 13600 ng/mL

CN1C(=O)[C@@H](NC(=O)c2nnc(Cc3ccccc3)[nH]2)COc2ccccc21
Cmax (healthy men, plasma; oral, 60 mg once daily, day 14, geometric mean): 646 ng/mL

N[C@]1(C(=O)O)[C@H]2[C@@H](C[C@@H]1F)[C@@H]2C(=O)O
Cmax (healthy subjects, both sexes, CSF; oral, 10 mg TS-134 single dose, fed, mean): 1.24 ng/mL

CC1=C2C[C@H]3[C@@H](CC[C@@H]4C[C@H](NS(C)(=O)=O)CC[C@@]43C)[C@@H]2CC[C@@]2(C1)O[C@@H]1C[C@H](C)CN[C@H]1[C@H]2C
Cmax (patients, plasma; oral, 30 mg daily, day 22, cycle 1): 27.2 ng/mL

CC(=O)N[C@H](CSSC[C@H](N)C(=O)O)C(=O)N[C@H](C)C(=O)N[C@H](CCCNC(=N)N)C(=O)N[C@H](CCCNC(=N)N)C(=O)N[C@H](CCCNC(=N)N)C(=O)N[C@H](C)C(=O)N[C@H](CCCNC(=N)N)C(N)=O
Cmax (Japanese hemodialysis patients, SHPT, plasma; intravenous, 2.5 mg 3 times weekly, 4 weeks, day 27, after last dose): 168 ± 24 ng/mL

Cc1ccnc2c1NC(=O)c1cccnc1N2C1CC1
Cmax (olive baboon (Papio anubis), female, non-pregnant, serum; oral, 10 mg/kg, solution, single dose): 594 ng/mL

C[C@@H](N)c1cc(Cl)ccc1Cn1c(=S)[nH]c(=O)c2[nH]ccc21
Cmax (healthy Japanese volunteers, plasma; oral, 2.5 mg once daily, day 1, geometric mean): 8.43 nM

O=C1CC[C@@]2(O)[C@H]3Cc4ccc(O)c5c4[C@@]2(CCN3CC2CC2)[C@H]1O5
Cmax (hairless guinea pig, plasma; topical, 0.5 mL of 16% gel): 7.5 ± 2.5 ng/mL

Nc1ncc(-c2cnn(CCO)c2)c2scc(-c3ccc(NC(=O)Nc4cccc(F)c4)cc3)c12
Cmax (patient, plasma; oral, 320 mg twice weekly, day 1, trial): 1480 ± 890 ng/mL

CNC(=O)c1cc(Oc2ccc(NC(=O)Nc3ccc(Cl)c(C(F)(F)F)c3)c(F)c2)ccn1
Cmax (metastatic colorectal cancer patients, plasma; oral, 120 mg once daily, steady state, alone): 5300 ng/mL

COc1cc(OC)c(/C=C/S(=O)(=O)Cc2ccc(OC)c(NCC(=O)O)c2)c(OC)c1
Cmax (cancer patients, phase I, plasma; oral, 700 mg twice daily, day 1 cycle 1): 5930 ± 4740 ng/mL

CC(C(=O)O)c1ccc(-c2ccccc2)c(F)c1 (centres unmarked)
Cmax (healthy volunteers, plasma; oral, 100 mg, geometric mean, with: control beverage 250 mL): 9100 ng/mL

CC(C(=O)O)c1ccc(-c2ccccc2)c(F)c1 (centres unmarked)
Cmax (HPLC; rabbit, plasma; oral, 2.58 mg/kg, single dose): 37300 ± 730 ng/mL

CCOc1ccc2cc(-c3nn(CC4CCN(C)CC4)c4ncnc(N)c34)ccc2c1
Cmax (sheep (pregnant, Neospora caninum-infected), plasma; oral, 100 mg/kg, after first dose): 2100 ± 700 nM

COc1c(OCCCN2CCOCC2)ccc2c1N=C(NC(=O)c1cnc(N)nc1)N1CCN=C21
Cmax (LC-MS/MS; patients with solid tumours, expansion cohort, plasma; intravenous, 0.8 mg/kg, cycle 1 day 15, geometric mean): 477 ng/mL

Cc1ccc(Sc2ccccc2N2CCNCC2)c(C)c1
Cmax (healthy women, plasma; oral, 10 mg once daily, fed, day 12): 13.8 ng/mL

Cc1cc(Nc2cc3ncccc3c(N[C@@H]3C[C@H]4CC[C@@H](C3)N4CCC#N)n2)n[nH]1
Cmax (pregnant rabbit, maternal plasma; oral, 10 mg/kg/day, gestation day 19): 11.4 ng/mL

CCC[C@H](N[C@@H](C)C(=O)N1[C@H](C(=O)O)C[C@@H]2CCCC[C@@H]21)C(=O)O
Cmax (healthy Chinese volunteers, plasma; oral, 4 mg perindopril tert-butylamine, fasting, with: indapamide 1.25 mg): 5.96 ± 3 ng/mL

C[C@]12C=CC(=O)C=C1CC[C@@H]1[C@@H]2[C@@H](O)C[C@@]2(C)[C@H]1C[C@H]1O[C@@H](C3CCCCC3)O[C@]12C(=O)CO
Cmax (children with asthma, serum; inhaled, 160 µg ciclesonide, day 7, HFA-MDI without spacer, steady state): 0.141 ± 0.013 ng/mL

CCCC[C@H](NC(C)=O)C(=O)N[C@H]1CCC(=O)NC[C@@H](C(=O)N[C@@H](Cc2c[nH]c3ccccc23)C(N)=O)NC(=O)[C@H](CCCNC(=N)N)NC(=O)[C@@H](Cc2ccccc2)NC(=O)[C@H](Cc2c[nH]cn2)NC1=O
Cmax (healthy volunteers, plasma; subcutaneous, 3.0 mg once daily, day 7, steady state median): 52.7 ng/mL

CCC(CC)O[C@@H]1C=C(C(=O)O)C[C@H](N)[C@H]1NC(C)=O
Cmax (healthy Indian subjects, fed, plasma; oral, 75 mg oseltamivir phosphate, test capsule formulation): 241 ± 64 ng/mL

CC(C)(Sc1ccncc1-c1ccc(C#N)c2ccccc12)C(=O)O
Cmax (healthy Japanese male subjects, plasma; oral, 10 mg single dose, day 1, fasted, geometric mean): 21.9 ng/mL

CS(=O)(=O)n1cc2c(n1)CN([C@H]1CO[C@H](c3cc(F)ccc3F)[C@@H](N)C1)C2
Cmax (healthy Japanese men, plasma; oral, 10 mg once weekly, day 15): 278 nM

Nc1nc(NC2CC2)c2ncn([C@H]3C=C[C@@H](CO)C3)c2n1
Cmax (HIV-infected children and adolescents, Tanner stage 1-2, plasma; oral, 8 mg/kg): 3500 ng/mL

C[C@@H](O)[C@H]1C(=O)N2C(C(=O)O)=C(S[C@@H]3CN[C@H](C(=O)N(C)C)C3)[C@H](C)[C@H]12
Cmax (microdialysis; pig (Danish Landrace), cancellous bone; iv infusion, 1000 mg over 10 min, with: vancomycin co-administered): 14000 ng/mL

CN1CCN(c2ccc3nc(-c4c(N)c5c(F)cccc5[nH]c4=O)[nH]c3c2)CC1
Cmax (patients, plasma; oral, 300 mg, day 1, maximum concurrent dosing, with: gemcitabine and capecitabine): 279 ng/mL

C[C@H]1CN(C(=O)CC#N)[C@]12CCN(c1ncnc3[nH]ccc13)C2
Cmax (human, plasma; topical, 5 g of 3% ointment): 7.42 ng/mL

CCc1cc2c(cc1N1CCC(N3CCOCC3)CC1)C(C)(C)c1[nH]c3cc(C#N)ccc3c1C2=O
Cmax (severe hepatic impairment patients, plasma, total; oral, 300 mg single dose, fed): 93.5 ng/mL

O=C1c2cccc3c2[C@H](CCC3)CN1[C@@H]1CN2CCC1CC2
Cmax (healthy volunteers, plasma; oral, 0.50 mg single dose, mean, with: netupitant 300 mg fixed combination): 1.18 ng/mL

CC(C)=CCC[C@](C)(O[C@@H]1O[C@H](CO)[C@@H](O)[C@H](O)[C@H]1O)[C@H]1CC[C@]2(C)[C@@H]1[C@H](O)C[C@@H]1[C@@]3(C)CC[C@H](O[C@@H]4O[C@H](CO)[C@@H](O)[C@H](O)[C@H]4O[C@@H]4O[C@H](CO)[C@@H](O)[C@H](O)[C@H]4O)C(C)(C)[C@@H]3CC[C@]12C
Cmax (LC-MS/MS; healthy volunteers, serum; oral, 3 g red ginseng): 1.77 ± 2.09 ng/mL

N[C@@H](CC(=O)N1CCn2c(nnc2C(F)(F)F)C1)Cc1cc(F)c(F)cc1F
Cmax (healthy Korean subjects, plasma; oral, 100 mg single dose, ABCB1 G2677T/A GG): 467 ± 110 ng/mL

O=C1CCc2ccc(OCCCCN3CCN(c4cccc(Cl)c4Cl)CC3)cc2N1
Cmax (healthy Japanese men, CYP2D6 EM, plasma; oral, 3 mg aripiprazole single, with: paroxetine 20 mg/day): 17.7 ± 4.6 ng/mL

C[C@H]1Oc2cc(cnc2N)-c2c(nn(C)c2C#N)CN(C)C(=O)c2ccc(F)cc21
Cmax (healthy adults; oral tablet, 100 mg single dose, fasted, adjusted geometric mean): 533 ng/mL

COc1ccc2c3c1O[C@H]1C[C@@H](OC(=O)c4ccccc4)C=C[C@@]31CCN(C)C2
Cmax (healthy young men, plasma; intranasal, 5.5 mg, single dose): 15.2 ng/mL

O=C1Nc2c(C(=O)O)ccnc2N(C2CC2)c2ncccc21
Cmax (olive baboon (Papio anubis), non-pregnant, serum; oral, 400 mg nevirapine, tablet): 264 ± 17 ng/mL

COc1cccc(N2CCN(C3=Nc4c(F)cccc4[C@H](CC(=O)O)N3c3cc(C(F)(F)F)ccc3OC)CC2)c1
Cmax (UHPLC-MS/MS; healthy women, plasma; intravenous infusion, 480 mg single dose, 60 min infusion, HPβCD formulation): 27300 ± 4420 ng/mL

Some of these lines once more:
COc1c(OCCCN2CCOCC2)ccc2c1N=C(NC(=O)c1cnc(N)nc1)N1CCN=C21
Cmax (LC-MS/MS; patients with solid tumours, expansion cohort, plasma; intravenous, 0.8 mg/kg, cycle 1 day 15, geometric mean): 477 ng/mL

Cc1ccc(Sc2ccccc2N2CCNCC2)c(C)c1
Cmax (healthy women, plasma; oral, 10 mg once daily, fed, day 12): 13.8 ng/mL

Cc1cc(Nc2cc3ncccc3c(N[C@@H]3C[C@H]4CC[C@@H](C3)N4CCC#N)n2)n[nH]1
Cmax (pregnant rabbit, maternal plasma; oral, 10 mg/kg/day, gestation day 19): 11.4 ng/mL

CCC[C@H](N[C@@H](C)C(=O)N1[C@H](C(=O)O)C[C@@H]2CCCC[C@@H]21)C(=O)O
Cmax (healthy Chinese volunteers, plasma; oral, 4 mg perindopril tert-butylamine, fasting, with: indapamide 1.25 mg): 5.96 ± 3 ng/mL

C[C@]12C=CC(=O)C=C1CC[C@@H]1[C@@H]2[C@@H](O)C[C@@]2(C)[C@H]1C[C@H]1O[C@@H](C3CCCCC3)O[C@]12C(=O)CO
Cmax (children with asthma, serum; inhaled, 160 µg ciclesonide, day 7, HFA-MDI without spacer, steady state): 0.141 ± 0.013 ng/mL
